Earlier results, collected from citations in different studies.
± gives the spread as reported. ≈ marks a conversion by molar mass, not a printed value.
UniProt O00750, sequence (whole entry, looked up): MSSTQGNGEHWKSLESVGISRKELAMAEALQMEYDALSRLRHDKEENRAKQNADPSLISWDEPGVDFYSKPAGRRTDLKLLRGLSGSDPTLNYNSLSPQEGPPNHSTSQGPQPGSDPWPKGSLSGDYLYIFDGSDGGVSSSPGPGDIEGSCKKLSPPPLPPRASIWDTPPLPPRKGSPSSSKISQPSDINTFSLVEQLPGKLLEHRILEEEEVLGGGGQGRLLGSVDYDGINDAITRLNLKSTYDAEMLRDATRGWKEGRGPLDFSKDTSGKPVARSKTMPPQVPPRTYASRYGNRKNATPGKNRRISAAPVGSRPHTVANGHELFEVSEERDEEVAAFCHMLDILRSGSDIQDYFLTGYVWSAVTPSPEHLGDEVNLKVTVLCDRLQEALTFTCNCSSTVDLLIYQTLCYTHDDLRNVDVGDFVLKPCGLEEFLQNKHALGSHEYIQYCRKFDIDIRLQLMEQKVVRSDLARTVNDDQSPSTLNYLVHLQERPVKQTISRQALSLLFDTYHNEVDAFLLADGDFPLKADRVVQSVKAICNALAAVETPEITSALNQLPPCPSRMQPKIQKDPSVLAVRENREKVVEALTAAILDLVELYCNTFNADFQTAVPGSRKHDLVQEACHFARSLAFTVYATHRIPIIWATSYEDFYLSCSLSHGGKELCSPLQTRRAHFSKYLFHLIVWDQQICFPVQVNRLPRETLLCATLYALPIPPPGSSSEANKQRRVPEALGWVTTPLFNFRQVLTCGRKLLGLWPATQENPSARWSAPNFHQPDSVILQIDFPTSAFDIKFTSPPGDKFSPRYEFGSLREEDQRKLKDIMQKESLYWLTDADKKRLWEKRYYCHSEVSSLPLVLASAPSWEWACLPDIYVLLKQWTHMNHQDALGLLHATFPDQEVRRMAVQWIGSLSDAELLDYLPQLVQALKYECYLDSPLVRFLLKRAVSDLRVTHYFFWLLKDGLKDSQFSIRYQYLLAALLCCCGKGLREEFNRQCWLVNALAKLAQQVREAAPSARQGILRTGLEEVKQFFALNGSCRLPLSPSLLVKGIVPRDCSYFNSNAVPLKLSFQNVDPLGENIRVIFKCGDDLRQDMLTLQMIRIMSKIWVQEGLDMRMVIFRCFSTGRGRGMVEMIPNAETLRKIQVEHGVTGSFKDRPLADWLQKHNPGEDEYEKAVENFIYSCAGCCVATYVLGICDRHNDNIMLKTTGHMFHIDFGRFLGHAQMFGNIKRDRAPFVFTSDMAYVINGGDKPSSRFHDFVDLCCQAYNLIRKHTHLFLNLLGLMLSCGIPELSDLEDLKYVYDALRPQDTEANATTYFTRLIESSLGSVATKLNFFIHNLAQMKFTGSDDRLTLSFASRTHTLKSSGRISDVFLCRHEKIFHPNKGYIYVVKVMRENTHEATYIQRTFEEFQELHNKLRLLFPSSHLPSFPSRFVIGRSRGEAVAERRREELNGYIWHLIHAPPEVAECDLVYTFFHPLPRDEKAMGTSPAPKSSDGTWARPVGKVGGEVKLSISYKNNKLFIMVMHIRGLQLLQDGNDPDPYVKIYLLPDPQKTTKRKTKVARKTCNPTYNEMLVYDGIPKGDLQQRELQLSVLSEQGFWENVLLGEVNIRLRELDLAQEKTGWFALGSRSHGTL
UniProt Q02318, sequence (whole entry, looked up): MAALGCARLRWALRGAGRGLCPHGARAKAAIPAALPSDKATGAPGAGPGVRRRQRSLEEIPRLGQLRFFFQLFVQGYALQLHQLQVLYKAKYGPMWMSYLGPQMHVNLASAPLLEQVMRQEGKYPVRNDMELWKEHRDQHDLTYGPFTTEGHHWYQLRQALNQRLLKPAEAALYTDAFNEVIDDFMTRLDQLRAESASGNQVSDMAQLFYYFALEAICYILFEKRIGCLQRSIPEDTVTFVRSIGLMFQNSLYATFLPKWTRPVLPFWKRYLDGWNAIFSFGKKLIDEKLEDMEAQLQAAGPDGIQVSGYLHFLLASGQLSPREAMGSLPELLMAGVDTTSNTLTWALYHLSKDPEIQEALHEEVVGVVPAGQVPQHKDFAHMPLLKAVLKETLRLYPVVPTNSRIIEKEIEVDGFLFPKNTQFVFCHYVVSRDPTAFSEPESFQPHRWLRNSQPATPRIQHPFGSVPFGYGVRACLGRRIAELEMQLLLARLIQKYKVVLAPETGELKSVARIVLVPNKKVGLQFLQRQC
UniProt Q8TCC7, sequence (whole entry, looked up): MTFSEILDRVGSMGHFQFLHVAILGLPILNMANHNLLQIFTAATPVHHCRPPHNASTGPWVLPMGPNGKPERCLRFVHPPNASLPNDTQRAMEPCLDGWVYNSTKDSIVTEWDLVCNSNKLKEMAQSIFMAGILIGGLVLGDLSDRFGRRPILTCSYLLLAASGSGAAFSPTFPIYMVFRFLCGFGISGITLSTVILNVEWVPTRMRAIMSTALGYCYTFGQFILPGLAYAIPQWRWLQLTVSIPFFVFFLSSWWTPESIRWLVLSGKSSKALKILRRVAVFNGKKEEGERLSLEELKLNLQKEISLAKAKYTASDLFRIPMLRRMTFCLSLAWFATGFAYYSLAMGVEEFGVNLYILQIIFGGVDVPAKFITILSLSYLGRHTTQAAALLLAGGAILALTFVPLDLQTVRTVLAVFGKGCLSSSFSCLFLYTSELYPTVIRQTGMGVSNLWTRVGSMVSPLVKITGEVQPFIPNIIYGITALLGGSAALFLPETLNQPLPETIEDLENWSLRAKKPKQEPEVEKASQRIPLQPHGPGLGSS
UniProt Q9UM73, sequence (whole entry, looked up): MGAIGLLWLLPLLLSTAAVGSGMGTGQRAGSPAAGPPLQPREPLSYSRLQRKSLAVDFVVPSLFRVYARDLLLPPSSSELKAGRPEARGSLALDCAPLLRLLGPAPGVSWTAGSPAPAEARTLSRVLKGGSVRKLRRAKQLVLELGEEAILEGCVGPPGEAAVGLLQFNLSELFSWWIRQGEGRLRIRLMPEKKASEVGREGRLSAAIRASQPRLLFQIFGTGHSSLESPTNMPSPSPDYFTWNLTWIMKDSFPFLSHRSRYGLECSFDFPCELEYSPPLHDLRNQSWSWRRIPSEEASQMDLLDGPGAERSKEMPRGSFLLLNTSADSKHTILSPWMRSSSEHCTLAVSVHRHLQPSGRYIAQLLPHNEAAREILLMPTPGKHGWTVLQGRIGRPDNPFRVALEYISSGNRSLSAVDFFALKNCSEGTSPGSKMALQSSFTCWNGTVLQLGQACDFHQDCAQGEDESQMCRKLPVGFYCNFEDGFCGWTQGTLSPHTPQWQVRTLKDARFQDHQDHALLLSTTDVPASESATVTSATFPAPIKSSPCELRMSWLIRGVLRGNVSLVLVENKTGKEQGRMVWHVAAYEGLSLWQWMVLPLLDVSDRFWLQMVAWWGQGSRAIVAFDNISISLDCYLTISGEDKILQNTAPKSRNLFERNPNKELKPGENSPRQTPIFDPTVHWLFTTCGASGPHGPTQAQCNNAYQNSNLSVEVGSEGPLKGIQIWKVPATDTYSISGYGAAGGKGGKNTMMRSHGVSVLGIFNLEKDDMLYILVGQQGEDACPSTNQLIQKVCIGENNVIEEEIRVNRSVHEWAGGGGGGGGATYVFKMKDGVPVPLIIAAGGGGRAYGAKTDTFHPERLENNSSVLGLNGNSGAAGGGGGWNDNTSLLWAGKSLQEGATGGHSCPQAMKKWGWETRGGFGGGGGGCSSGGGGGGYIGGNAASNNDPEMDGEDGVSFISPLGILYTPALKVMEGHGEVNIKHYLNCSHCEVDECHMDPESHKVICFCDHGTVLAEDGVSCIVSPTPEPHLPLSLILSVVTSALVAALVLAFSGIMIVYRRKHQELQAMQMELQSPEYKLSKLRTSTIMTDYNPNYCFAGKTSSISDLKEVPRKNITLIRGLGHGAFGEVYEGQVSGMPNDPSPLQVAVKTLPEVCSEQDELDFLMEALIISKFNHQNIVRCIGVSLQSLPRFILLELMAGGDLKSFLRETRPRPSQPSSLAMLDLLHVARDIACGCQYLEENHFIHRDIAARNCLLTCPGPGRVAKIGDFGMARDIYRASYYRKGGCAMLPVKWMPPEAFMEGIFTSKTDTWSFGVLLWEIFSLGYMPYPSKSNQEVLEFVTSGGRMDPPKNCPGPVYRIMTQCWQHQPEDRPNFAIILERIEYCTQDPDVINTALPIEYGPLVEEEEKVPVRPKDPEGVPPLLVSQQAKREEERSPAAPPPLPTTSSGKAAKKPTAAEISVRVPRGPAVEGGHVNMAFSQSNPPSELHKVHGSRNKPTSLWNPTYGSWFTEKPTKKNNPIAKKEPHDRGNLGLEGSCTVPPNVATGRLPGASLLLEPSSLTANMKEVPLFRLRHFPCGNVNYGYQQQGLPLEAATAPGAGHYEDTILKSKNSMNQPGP
UniProt O60678, sequence (whole entry, looked up): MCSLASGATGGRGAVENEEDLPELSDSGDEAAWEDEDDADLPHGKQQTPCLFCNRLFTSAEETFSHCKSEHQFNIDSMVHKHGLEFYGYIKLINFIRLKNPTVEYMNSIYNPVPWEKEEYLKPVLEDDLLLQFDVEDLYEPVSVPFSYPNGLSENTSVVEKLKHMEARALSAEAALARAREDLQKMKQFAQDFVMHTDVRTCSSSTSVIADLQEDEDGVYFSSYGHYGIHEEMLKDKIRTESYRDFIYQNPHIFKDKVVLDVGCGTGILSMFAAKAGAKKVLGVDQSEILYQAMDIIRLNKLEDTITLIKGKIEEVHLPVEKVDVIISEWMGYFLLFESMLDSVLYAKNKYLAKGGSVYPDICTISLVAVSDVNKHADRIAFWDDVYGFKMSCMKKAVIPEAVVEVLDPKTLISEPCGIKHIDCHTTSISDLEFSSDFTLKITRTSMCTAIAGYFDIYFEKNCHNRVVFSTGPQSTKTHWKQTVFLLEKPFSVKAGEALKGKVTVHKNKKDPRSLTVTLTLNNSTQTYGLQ

Cc1cc(NC(=O)c2cccc(NC(=O)/C=C/CN(C)C)c2)ccc1Nc1nccc(-c2cccnc2)n1
remaining activity (Insulin receptor (INSR, Homo sapiens, UniProt P06213); enzyme activity, inhibitor; 1 µM; reference: vehicle): 14%

C[C@@H](O)[C@H]1C(=O)N2C(C(=O)O)=C(S[C@@H]3CN[C@H](C(=O)N(C)C)C3)[C@H](C)[C@H]12
Km (SLC22A8 (Homo sapiens, UniProt Q8TCC7); substrate): 847 µM

COC(=O)[C@H](c1ccccc1Cl)N1CCc2sccc2C1
Km (CES1): 46.4 µM

COc1cccc(-c2ccc(NC(=O)C3=C(C(=O)O)CCC3)c(F)c2)c1
maximal activation (Nuclear receptor subfamily 4 group A member 3 (Homo sapiens, UniProt Q92570); agonist; reference: reference modulator): 460%

CC(C)CCC[C@@H](C)[C@H]1CC[C@H]2[C@@H]3CC=C4C[C@@H](O)CC[C@]4(C)[C@H]3CC[C@]12C
Km (hh, HhC autoprocessing domain (Drosophila melanogaster, UniProt Q02936); substrate; native substrate): 1 µM

O=C(Nc1nc2ccccc2[nH]1)c1ccccc1
activity (matrix metalloproteinase 1; PubChem AID 618): 3.5 µM

CCCCC/C=C\C[C@@H](O)/C=C/C=C/C=C\[C@@H](O)CCCC(=O)O
Km (human CYP4F3A; metabolism, substrate; insect cell microsomes): 0.68 µM

Nc1cc(C(F)(F)F)c(-c2nc(N3CCOCC3)nc(N3CCOCC3)n2)cn1
remaining binding (PIK3C2B (Homo sapiens, UniProt O00750); KinomeScan competition binding; 10 µM): 41%

O=c1[nH]c2nc(-c3ccccc3)sc2c(=O)n1O
koff (Ketol-acid reductoisomerase (NADP(+)) (ilvC, Campylobacter jejuni subsp. jejuni serotype O:2, UniProt Q9PHN5)): 6e-05 s⁻¹

CC1(C)S[C@@H]2[C@H](NC(=O)[C@H](N)c3ccccc3)C(=O)N2[C@H]1C(=O)O
MIC (Pseudomonas aeruginosa; clinical isolate RKI-No_21/11): > 16 µg/mL

Nc1cc(C(F)(F)F)c(-c2nc(N3CCOCC3)nc(N3CCOCC3)n2)cn1
remaining activity (ALK (Homo sapiens, UniProt Q9UM73); enzyme activity; 10 µM; reference: untreated): 94%

CCN(c1cc(-c2ccc(CN3CCOCC3)cc2)cc(C(=O)NCc2c(C)cc(C)[nH]c2=O)c1C)C1CCOCC1
inhibition (PRMT3 (Homo sapiens, UniProt O60678); enzyme activity, inhibitor; 1 µM): 2 ± 2%

CC/C=C(\C)C=O
conversion (12-oxophytodienoate reductase OPR1 (isoform 1); ene-reductase biotransformation, substrate): 96%

C=CCOc1ccc(-c2c(C)[nH]c(C)c(Br)c2=O)cc1
IC50 (Plasmodium falciparum; whole cell extended time; 3D7; 72 h): 280 nM

CCC(=O)O[C@]1(C(=O)SCF)[C@H](C)C[C@H]2[C@@H]3C[C@H](F)C4=CC(=O)C=C[C@]4(C)[C@@]3(F)[C@@H](O)C[C@@]21C
receptor occupancy (Nr3c1 (Rattus norvegicus, UniProt P06536); rat, spleen; intravenous, 90 nmol/kg, 0.625 (unit not given)): 81.1%

CNC(C)C1CCC(N)C(OC2C(N)CC(N)C(OC3OCC(C)(O)C(NC)C3O)C2O)O1 (stereo not drawn)
MIC (Pseudomonas aeruginosa; clinical isolate RKI-No_230/10): 8 µg/mL (≈ 16.8 µM)

Cc1cc(=O)c(-c2ccc(OCCSc3ccc(C(F)(F)F)cn3)cc2)c(C)[nH]1
IC50 (Plasmodium falciparum; whole cell extended time; 3D7; 72 h): 530 nM

CC(C)CCC[C@@H](C)[C@H]1CC[C@H]2[C@@H]3CC=C4C[C@@H](O)CC[C@]4(C)[C@H]3CC[C@]12C
kcat (CYP27A1 (Homo sapiens, UniProt Q02318); substrate): 0.163 s⁻¹

Excerpt of the above:
CC(C)CCC[C@@H](C)[C@H]1CC[C@H]2[C@@H]3CC=C4C[C@@H](O)CC[C@]4(C)[C@H]3CC[C@]12C
kcat (CYP27A1 (Homo sapiens, UniProt Q02318); substrate): 0.163 s⁻¹

COC(=O)[C@H](c1ccccc1Cl)N1CCc2sccc2C1
Km (CES1): 46.4 µM

CC/C=C(\C)C=O
conversion (12-oxophytodienoate reductase OPR1 (isoform 1); ene-reductase biotransformation, substrate): 96%
